Published values collected from several papers.
A part holds a random share of what one study measured. Substitutions count along the parent as printed.

Study 1
Target: Phosphate system positive regulatory protein PHO4, full length, GST-tagged (PHO4, Saccharomyces cerevisiae, UniProt P07270, residues 1-312)
UniProt P07270, sequence (whole entry, looked up): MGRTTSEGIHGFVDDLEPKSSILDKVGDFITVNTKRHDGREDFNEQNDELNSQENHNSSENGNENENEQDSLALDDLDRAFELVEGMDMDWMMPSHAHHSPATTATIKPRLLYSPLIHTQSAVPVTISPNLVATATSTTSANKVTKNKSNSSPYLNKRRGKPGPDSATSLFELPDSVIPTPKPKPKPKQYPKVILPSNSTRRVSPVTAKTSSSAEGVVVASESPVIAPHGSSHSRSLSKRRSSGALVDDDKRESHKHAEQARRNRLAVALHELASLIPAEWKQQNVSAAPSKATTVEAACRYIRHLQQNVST
Technique: competition protein-binding microarray
Form: double-stranded DNA, one strand shown
Matrix: in vitro
Concentration: 2 µM
Setting: whole 60-bp probe, lowest competitor level
Together with: Cbf1 competitor, 0.05 µM
Direction: higher = stronger binding
Quantity: fluorescence intensity
Shared flanks, not repeated: … GTCTTGATTCGCTTGACGCTGCTG
CTAACGAAGGTTTGAGACGTGGGTGACAAGCCAAGT: 6070 a.u.
AAAAAGTAAAGTTAGCACGTGATGGTTTAGAAAATC: 17500 a.u.
TAAACCAAGTAAATGACGATGGGAGAAGCAGTACCC: 3400 a.u.
TCAAACTGAGATCCGGTCATGACAATACTGTCAACA: 3310 a.u.
TGCGCAACAACTTGGCGGGTGGGTGTATGTCTAGAA: 4340 a.u.
GGACATAAATGCTCGCGCATGACAGAGACTGGCCGG: 5820 a.u.
GTCTTGTCTCATTGTCACCACACTTTCCCCACTTCA: 6150 a.u.
AAGACATATAATCAAAACGTGAGATTCCTGTGGAAA: 9150 a.u.
CTCGCATAACGCAGGCACAGGTCTCGAACTGCGGTG: 4870 a.u.
ACAGACCCCGAAGGAGCCGTGATGGACTTTACACCA: 3580 a.u.
CTTTCCCGATCTTGATGAGTGGGTGTAGCACATTTG: 4430 a.u.
AATGGAACAGATTAGCACGTGAACGAGAAAGCAACC: 15600 a.u.
AATATGCACTGCAACTTCGTGCTTTATTTCAATATC: 8190 a.u.
TGTTTTTTCTTCTGTCAGGTGAAAGTATAGGACCAA: 2990 a.u.
CGTCCTAGTGATTGGTCCGTGGGTGCCATGAGGAAG: 8140 a.u.
CCTATTTTTCTTTTTTACGTGCTAAGGACGAAAAGT: 5960 a.u.
CTGATGTCTGTTTTCAACATGATGTCCAATGGTGCC: 6030 a.u.
TATAAAACAACTTTGAACGTGGCAAATCAGATTGCC: 12100 a.u.
AAAGCGGTAATTTGTCACTCGACTTCACATATCTAT: 3200 a.u.

Study 2
Target: ABI1, truncated, D143A, DHFR fusion (Arabidopsis thaliana)
Technique: DHFR PCA, deep sequencing
Matrix: yeast
Setting: methotrexate growth selection, single substitutions
Together with: (+)-ABA 0.11 µM
Reference: wild-type fitted maximum
Direction: higher = stronger binding
Quantity: relative binding score
Starting sequence: PYL1, truncated, DHFR fusion (Arabidopsis thaliana); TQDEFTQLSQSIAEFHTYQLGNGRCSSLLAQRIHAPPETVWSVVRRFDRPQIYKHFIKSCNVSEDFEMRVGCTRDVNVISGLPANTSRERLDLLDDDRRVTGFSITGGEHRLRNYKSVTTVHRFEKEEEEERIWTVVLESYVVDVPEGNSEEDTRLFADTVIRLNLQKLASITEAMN
N85T: 69.4%
T73E: 39.2%
L156R: 5.81%
L156A: 18.6%
Y141T: -2.37%
S171G: 13.2%
L156Q: 4.88%
G21D: 32.6%
S150N: 27.3%
I52L: 46%
V100Q: -10.2%
T135C: 13.6%
T154I: 21.6%
V62G: 1.73%
R74K: -1.51%

Study 3
Target: PABPC1L2, full length, GST fusion (mouse, UniProt A0ABA7IW68)
Technique: RNAcompete
Form: RNA
Matrix: in vitro
Concentration: 20 nM
Setting: 7-mer, probes averaged, single round
Reference: mean of 7-mers
Direction: higher = stronger binding
Quantity: 7-mer Z-score
Residues (chain): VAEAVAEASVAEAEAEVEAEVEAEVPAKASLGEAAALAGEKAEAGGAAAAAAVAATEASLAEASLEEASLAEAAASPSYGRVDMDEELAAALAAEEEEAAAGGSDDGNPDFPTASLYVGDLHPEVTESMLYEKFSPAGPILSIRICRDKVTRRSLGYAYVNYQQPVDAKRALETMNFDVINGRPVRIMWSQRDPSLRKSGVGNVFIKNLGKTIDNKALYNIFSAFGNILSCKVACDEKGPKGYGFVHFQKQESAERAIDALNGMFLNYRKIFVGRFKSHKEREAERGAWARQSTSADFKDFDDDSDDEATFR
UGCAACU: -0.157
GCGUUCC: -0.287
GCGAGGC: -0.00289
GGAAGCA: 0.0225
CCAAUCG: -0.262
CAAACCU: -0.0699
GCCUUCG: -0.429
AAGUGGG: 0.863
UGAGCUU: -0.335
CACUAUA: -0.0301
AUGCCGA: -0.0681
GUCGCCC: -0.425
CCUGACC: -0.336
UUCAGCG: -0.287
UGCCCUA: -0.295

Study 4
Target: CCNA2, cyclin fold, Cln2 fusion (human)
Technique: yeast growth competition, sequencing
Matrix: yeast
Setting: strong parent motif
Reference: not given
Direction: higher = stronger binding
Quantity: normalised enrichment score
Starting sequence: RB1 docking peptide (human); PKPLKKLRFDIEG
P3K: 0.427
F9Q: 0.887
F9D: 0.433
K2E: 0.992
K6E: -0.0546
E12G: 2.13
I11N: 1.68
P3A: 3.5
L7G: 0.882
F9C: 0.224
D10F: 2.09
R8Q: 1.3
I11G: 0.977
I11H: 0.935
